Experimental data collected from several papers.
Protocols differ between the studies behind these lines. Numbers after ± are the reported error.

[2H]C([2H])([2H])C([2H])([2H])C([2H])([2H])OC(C(=O)OC1CCNCC1)(c1ccccc1)c1ccccc1 — adverse drug reactions (measured: headache; healthy Japanese male; oral, 10 mg, 16 days, multiple ascending dose): 0%
COc1ccc2c3c(c4cc(OC)c(OC)cc4c2c1)CN1CCCC1C3 (centres unmarked) — CC50 (swine cells; 24 (unit not given)): 71.5 ± 2.15 µM
Cc1ccc(/C=C/C(=O)O)cc1-c1cc2c(cc1C)C(C)(C)CCC2(C)C — blood cholesterol (Sprague-Dawley rat, male; oral, 100 mg/kg, 12 h, sesame oil vehicle): 66 ± 10.6 mg/dL
CCCCCCCCCCCCC(=O)O.O=C1CCCC2C3CCCN4CCCC(CN12)C34 (centres unmarked) — standard Gibbs energy of aggregation (electrical conductivity; water; 308.15 K): -8.61 kcal/mol
CCNc1cc2[o+]c3cc(NCC)c(C)cc3c(-c3ccccc3C(=O)OCCOCC[18F])c2cc1C — tissue uptake (rat, bone; 60 min): 0.29 ± 0.05 %ID/g
O=c1cc(-c2ccccc2)oc2c(Br)c(O)c(O)c(O)c12 — time above EC99.9 (C57BL/6 mouse, plasma; oral, 250 mg/kg): 12 h
CC[C@H](C)[C@H](NC(=O)CNC(=O)[C@@H](NC(=O)[C@H](Cc1ccc(O)cc1)NC(=O)[C@@H](NC(=O)[C@H](CO)NC(=O)[C@@H](NC(=O)[C@H](C)NC(=O)[C@@H]1CCCN1C(=O)[C@@H](NC(=O)[C@H](Cc1ccccc1)NC(=O)[C@H](CCCCN)NC(=O)[C@H](CCC(=O)O)NC(=O)[C@H](Cc1ccc(O)cc1)NC(=O)[C@H](CC(C)C)NC(=O)[C@H](CC(=O)O)NC(=O)[C@H](CCCNC(=N)N)NC(=O)[C@H](CC(C)C)NC(=O)[C@H](CCCCN)NC(=O)[C@H](CCC(=O)O)NC(=O)[C@H](Cc1ccccc1)NC(=O)[C@@H](NC(=O)[C@H](CCC(=O)O)NC(=O)[C@H](CCCCN)NC(=O)[C@H](CC(C)C)NC(=O)[C@H](Cc1ccc(O)cc1)NC(=O)[C@@H](N)CC(=O)O)C(C)C)[C@@H](C)O)C(C)C)[C@@H](C)O)[C@@H](C)O)C(=O)N[C@@H](Cc1ccccc1)C(=O)N[C@H](C(=O)N[C@@H](CC(=O)O)C(=O)N[C@@H](CCC(N)=O)C(=O)N[C@H](C(=O)N[C@@H](CC(C)C)C(=O)N[C@@H](CO)C(=O)N[C@H](C(=O)N[C@@H](CC(C)C)C(=O)N[C@@H](CCCCN)C(=O)NCC(=O)N[C@@H](CCC(=O)O)C(=O)N[C@@H](CCC(=O)O)C(=O)O)C(C)C)C(C)C)[C@@H](C)O — clearance (C57BL/6 mice, female, plasma; dose not given): ~0.133 mL/min/kg
COc1ccc(NC(=O)Cn2c(=O)c3ccccc3n(CC(=O)Nc3cc([125I])c(OC)cc3OC)c2=O)cc1 — tracer uptake (rat, intestine; intravenous, 5 min): 1.09 %ID/g
COc1cc(NC(=O)C(=O)c2c(C)n(Cc3ccc(Cl)cc3)c3ccc(C)cc23)ccn1 — AUC(0-inf) (cynomolgus monkey, male, plasma; intravenous, 1 mg/kg): 1570 ng·h/mL
C[C@]12C(=O)[C@](C)(C(c3ccccc3)=C1c1ccccc1)C1(Br)C(=O)N(CCN)C(=O)C12 (some centres unmarked) — decomposition temperature (thermogravimetric analysis): 125 °C
O=C(c1ccc(F)cc1)C1CCN(C2Cc3c(cccc3OCC[18F])CC2O)CC1 (single isomer, unassigned; (-)) — tracer uptake (rat, brain; 1 h): 0.548 %ID/g

Excerpt of the above:
Cc1ccc(/C=C/C(=O)O)cc1-c1cc2c(cc1C)C(C)(C)CCC2(C)C — blood cholesterol (Sprague-Dawley rat, male; oral, 100 mg/kg, 12 h, sesame oil vehicle): 66 ± 10.6 mg/dL
